Published values from different studies.
Parts stem from different laboratories: compare values within a part only.
Chain of UniProt P15056 (whole entry, unmodified, looked up): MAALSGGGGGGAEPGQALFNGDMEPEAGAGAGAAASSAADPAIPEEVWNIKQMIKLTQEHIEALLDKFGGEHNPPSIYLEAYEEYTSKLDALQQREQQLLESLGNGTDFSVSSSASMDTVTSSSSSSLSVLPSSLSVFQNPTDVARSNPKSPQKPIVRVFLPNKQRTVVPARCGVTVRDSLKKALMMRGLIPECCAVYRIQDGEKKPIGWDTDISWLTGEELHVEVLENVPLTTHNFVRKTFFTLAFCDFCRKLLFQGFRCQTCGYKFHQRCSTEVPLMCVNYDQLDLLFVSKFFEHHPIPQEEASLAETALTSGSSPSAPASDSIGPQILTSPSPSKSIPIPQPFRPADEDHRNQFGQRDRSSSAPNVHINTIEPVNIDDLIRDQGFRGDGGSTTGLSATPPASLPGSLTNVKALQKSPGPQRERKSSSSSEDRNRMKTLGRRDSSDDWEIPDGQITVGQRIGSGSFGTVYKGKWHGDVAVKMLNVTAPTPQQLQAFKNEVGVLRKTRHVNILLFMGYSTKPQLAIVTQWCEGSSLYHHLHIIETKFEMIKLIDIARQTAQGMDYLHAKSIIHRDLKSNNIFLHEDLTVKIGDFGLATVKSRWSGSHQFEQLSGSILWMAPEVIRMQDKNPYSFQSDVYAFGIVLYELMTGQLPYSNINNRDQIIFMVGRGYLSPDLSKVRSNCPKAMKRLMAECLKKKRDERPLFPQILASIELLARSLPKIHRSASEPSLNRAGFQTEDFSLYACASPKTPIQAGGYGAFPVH
Chain of UniProt P23458 (whole entry, looked up): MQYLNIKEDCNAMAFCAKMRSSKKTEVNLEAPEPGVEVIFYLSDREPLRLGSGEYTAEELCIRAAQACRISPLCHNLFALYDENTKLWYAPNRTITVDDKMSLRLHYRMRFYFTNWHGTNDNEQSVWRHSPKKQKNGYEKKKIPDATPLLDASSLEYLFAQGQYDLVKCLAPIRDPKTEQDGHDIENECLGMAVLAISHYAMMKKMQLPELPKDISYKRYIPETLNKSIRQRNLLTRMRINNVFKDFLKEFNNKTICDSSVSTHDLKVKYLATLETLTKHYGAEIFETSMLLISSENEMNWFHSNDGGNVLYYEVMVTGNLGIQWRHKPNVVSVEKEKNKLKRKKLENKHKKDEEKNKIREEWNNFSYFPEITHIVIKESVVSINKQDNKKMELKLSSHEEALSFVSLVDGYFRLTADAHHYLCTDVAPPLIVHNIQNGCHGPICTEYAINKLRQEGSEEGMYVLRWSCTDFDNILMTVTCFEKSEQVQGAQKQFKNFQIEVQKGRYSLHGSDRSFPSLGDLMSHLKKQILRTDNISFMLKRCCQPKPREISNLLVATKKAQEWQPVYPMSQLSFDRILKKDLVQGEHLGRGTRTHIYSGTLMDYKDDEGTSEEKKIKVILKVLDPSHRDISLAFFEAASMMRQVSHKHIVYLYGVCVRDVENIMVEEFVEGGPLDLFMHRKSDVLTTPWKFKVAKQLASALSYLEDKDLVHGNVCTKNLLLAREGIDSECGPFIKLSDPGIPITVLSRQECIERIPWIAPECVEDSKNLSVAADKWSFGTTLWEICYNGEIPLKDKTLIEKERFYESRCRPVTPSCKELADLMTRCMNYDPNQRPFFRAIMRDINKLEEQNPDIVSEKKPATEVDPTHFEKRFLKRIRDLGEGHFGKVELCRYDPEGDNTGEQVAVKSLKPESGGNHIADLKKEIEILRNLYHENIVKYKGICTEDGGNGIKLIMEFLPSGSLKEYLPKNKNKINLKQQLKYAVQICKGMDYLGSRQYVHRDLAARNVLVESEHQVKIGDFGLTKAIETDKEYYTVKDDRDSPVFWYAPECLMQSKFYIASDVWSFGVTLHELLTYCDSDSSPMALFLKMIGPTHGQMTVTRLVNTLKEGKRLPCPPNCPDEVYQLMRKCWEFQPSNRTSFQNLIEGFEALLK
Chain of UniProt O43683 (whole entry, looked up): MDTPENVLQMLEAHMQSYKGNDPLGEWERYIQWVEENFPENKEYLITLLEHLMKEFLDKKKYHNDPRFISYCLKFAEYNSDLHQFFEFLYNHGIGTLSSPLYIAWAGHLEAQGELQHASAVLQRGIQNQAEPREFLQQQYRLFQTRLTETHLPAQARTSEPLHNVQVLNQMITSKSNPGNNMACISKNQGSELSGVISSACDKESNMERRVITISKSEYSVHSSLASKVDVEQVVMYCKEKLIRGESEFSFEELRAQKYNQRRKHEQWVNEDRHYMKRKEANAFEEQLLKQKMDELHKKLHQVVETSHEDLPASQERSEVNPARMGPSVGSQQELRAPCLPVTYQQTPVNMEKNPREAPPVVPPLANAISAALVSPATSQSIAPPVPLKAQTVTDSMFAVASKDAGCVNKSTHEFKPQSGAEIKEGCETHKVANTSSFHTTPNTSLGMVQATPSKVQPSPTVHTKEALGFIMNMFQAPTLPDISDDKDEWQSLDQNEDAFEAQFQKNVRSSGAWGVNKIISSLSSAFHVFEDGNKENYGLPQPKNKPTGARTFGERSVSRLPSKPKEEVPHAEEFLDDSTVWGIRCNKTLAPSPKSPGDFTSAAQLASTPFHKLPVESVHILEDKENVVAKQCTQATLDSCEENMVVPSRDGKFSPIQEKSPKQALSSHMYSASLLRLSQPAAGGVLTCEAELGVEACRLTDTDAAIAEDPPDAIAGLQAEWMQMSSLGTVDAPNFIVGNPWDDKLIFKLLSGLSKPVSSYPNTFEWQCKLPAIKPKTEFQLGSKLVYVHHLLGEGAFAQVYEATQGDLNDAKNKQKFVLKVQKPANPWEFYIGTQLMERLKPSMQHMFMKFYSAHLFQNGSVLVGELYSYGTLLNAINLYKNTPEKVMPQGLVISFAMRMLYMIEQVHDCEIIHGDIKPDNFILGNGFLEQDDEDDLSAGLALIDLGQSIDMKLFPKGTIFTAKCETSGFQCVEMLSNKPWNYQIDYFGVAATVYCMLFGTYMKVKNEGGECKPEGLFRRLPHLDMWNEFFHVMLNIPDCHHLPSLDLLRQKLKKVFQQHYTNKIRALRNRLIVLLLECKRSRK
Chain of UniProt Q9UPE1 (whole entry, looked up): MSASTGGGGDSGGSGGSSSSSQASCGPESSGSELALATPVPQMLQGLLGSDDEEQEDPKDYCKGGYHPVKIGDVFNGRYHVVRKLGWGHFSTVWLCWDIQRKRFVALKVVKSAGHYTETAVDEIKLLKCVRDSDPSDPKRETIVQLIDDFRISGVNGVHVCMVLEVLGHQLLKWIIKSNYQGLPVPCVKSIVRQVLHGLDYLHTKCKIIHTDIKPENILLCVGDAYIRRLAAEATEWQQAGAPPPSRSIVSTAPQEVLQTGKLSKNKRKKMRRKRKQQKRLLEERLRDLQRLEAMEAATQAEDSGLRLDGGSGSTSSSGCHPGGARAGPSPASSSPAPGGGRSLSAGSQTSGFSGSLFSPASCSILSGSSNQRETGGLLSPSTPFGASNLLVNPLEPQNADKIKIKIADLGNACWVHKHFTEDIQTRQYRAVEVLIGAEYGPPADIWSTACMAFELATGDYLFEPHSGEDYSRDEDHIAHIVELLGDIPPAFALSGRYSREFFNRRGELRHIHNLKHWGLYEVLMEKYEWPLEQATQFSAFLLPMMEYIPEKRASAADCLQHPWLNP
Chain of UniProt P08069 (whole entry, looked up): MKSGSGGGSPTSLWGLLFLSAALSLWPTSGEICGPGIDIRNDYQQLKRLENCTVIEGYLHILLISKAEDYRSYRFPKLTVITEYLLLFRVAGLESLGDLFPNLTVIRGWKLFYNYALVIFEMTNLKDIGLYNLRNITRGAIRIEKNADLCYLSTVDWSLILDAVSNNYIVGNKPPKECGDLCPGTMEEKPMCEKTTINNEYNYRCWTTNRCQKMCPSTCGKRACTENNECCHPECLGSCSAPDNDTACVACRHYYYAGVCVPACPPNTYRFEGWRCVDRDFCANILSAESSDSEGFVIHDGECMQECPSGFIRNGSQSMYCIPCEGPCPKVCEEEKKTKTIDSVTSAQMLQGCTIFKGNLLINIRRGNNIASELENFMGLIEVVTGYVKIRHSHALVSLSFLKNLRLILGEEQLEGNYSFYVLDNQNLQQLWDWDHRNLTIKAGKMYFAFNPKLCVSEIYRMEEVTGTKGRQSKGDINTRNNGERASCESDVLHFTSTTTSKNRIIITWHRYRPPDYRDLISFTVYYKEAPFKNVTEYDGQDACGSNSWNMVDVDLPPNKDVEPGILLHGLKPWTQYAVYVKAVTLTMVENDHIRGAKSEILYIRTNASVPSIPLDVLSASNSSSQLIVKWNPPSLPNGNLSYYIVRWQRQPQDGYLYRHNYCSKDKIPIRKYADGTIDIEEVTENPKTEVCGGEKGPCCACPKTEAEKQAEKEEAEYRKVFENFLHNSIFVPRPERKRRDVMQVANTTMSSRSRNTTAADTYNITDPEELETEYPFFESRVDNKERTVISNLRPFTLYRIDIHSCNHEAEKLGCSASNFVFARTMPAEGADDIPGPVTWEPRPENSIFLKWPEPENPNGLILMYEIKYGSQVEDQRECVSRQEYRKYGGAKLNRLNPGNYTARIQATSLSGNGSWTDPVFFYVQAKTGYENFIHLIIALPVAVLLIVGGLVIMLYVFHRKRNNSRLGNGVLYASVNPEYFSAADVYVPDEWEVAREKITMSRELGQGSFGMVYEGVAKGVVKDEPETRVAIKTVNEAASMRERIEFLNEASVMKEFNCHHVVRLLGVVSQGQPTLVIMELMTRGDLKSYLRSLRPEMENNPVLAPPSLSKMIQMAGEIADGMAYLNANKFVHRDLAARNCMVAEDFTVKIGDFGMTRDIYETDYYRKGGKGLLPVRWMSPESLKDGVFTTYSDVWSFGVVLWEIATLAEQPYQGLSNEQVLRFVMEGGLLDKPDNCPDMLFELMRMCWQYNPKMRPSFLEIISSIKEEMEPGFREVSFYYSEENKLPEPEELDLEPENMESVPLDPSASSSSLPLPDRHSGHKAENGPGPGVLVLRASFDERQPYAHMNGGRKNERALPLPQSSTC

Set 1 — action: inhibitor
Structure (SMILES): Cc1nc(Nc2ncc(C(=O)Nc3c(C)cccc3Cl)s2)cc(N2CCN(CCO)CC2)n1
| target | concentration | inhibition [%] |
| --- | --- | --- |
| ACVR1 (Homo sapiens, UniProt Q04771) | 10 µM | 96 |
| MYLK4 (Homo sapiens, UniProt Q86YV6) | 10 µM | < 50 |
| MAPK13 (Homo sapiens, UniProt O15264) | 10 µM | < 50 |
| CDK19 (Homo sapiens, UniProt Q9BWU1) | 1 µM | < 50 |
| FLT4 (Homo sapiens, UniProt P35916) | 10 µM | < 50 |
| MAP4K2 (Homo sapiens, UniProt Q12851) | 10 µM | 72 |
| Non-receptor tyrosine-protein kinase TYK2, JH2 pseudokinase domain (TYK2, Homo sapiens, UniProt P29597) | 1 µM | < 50 |
| NEK2 (Homo sapiens, UniProt P51955) | 10 µM | 70 |
| DDR1 (Homo sapiens, UniProt Q08345) | 1 µM | 100 |
| BUB1 (Homo sapiens, UniProt O43683) | 1 µM | < 50 |
| SRPK3 (Homo sapiens, UniProt Q9UPE1) | 1 µM | < 50 |
| RIOK1 (Homo sapiens, UniProt Q9BRS2) | 10 µM | < 50 |

Set 2 — concentration: 1 µM
Structure (SMILES): O=C(O)c1cc(-c2ccc(C3CCNCC3)cc2)c2ccc(-c3ccc(C(F)(F)F)cc3)cc2c1
| target | effect on | method | remaining binding |
| --- | --- | --- | --- |
| SRPK3 (Homo sapiens, UniProt Q9UPE1) | cell-free assay | competition with immobilised ligand | 82% |
| BRAF (Homo sapiens, UniProt P15056, V600E) | cell-free assay | competition with immobilised ligand | 100% |
| BRAF (Homo sapiens, UniProt P15056) | cell-free assay | competition with immobilised ligand | 100% |
| BUB1 (Homo sapiens, UniProt O43683) | cell-free assay | competition with immobilised ligand | 100% |
| Tyrosine-protein kinase ABL1, phosphorylated (ABL1, Homo sapiens, UniProt P00519, F317I) | binding | – | 100% |
| PKMYT1 (Homo sapiens, UniProt Q99640) | cell-free assay | competition with immobilised ligand | 100% |
| Tyrosine-protein kinase JAK1, JH2 (JAK1, Homo sapiens, UniProt P23458) | cell-free assay | competition with immobilised ligand | 87% |
| PIK3CA (Homo sapiens, UniProt P42336, E545A) | cell-free assay | competition with immobilised ligand | 87% |
| BMPR1A (Homo sapiens, UniProt P36894) | binding | competition with immobilised ligand | 100% |
| CDK11B (Homo sapiens, UniProt P21127) | cell-free assay | competition with immobilised ligand | 100% |
| SYK (Homo sapiens, UniProt P43405) | cell-free assay | competition with immobilised ligand | 100% |
| STK17B (Homo sapiens, UniProt O94768) | cell-free assay | competition with immobilised ligand | 100% |
| PNCK (Homo sapiens, UniProt Q6P2M8) | cell-free assay | competition with immobilised ligand | 100% |
| MATK (Homo sapiens, UniProt P42679) | cell-free assay | competition with immobilised ligand | 100% |
| MERTK (Homo sapiens, UniProt Q12866) | cell-free assay | competition with immobilised ligand | 85% |
| ACVR2B (Homo sapiens, UniProt Q13705) | cell-free assay | competition with immobilised ligand | 100% |

Set 3 — effect on: enzyme activity; action: inhibitor; concentration: 0.5 µM; reference: control
Structure (SMILES): NC(=O)c1ccc(N(C(N)=O)c2c(F)cccc2F)nc1-c1ccc(F)cc1F
| target | remaining activity |
| --- | --- |
| PRKCQ (Homo sapiens, UniProt Q04759) | 85.1% |
| PRKCZ (Homo sapiens, UniProt Q05513) | 89.9% |
| CSNK1D (Homo sapiens, UniProt P48730) | 89.8% |
| IGF1R (Homo sapiens, UniProt P08069) | 92.3% |
| SRPK1 (Homo sapiens, UniProt Q96SB4) | 99% |
| FLT1 (Homo sapiens, UniProt P17948) | 102% |
| Cyclin-dependent kinase 2, with cyclin E (CDK2, Homo sapiens, UniProt P24941) | 93.1% |
| CSNK1E (Homo sapiens, UniProt P49674) | 98.2% |
| CLK2 (Homo sapiens, UniProt P49760) | 86.9% |
| TYRO3 (Homo sapiens, UniProt Q06418) | 101% |
| RPS6KA3 (Homo sapiens, UniProt P51812) | 99.8% |
| PAK6 (Homo sapiens, UniProt Q9NQU5) | 103% |
| EPHA6 (Homo sapiens, UniProt Q9UF33) | 95% |
| MAP3K20 (Homo sapiens, UniProt Q9NYL2) | 97.9% |
| CAMKK1 (Homo sapiens, UniProt Q8N5S9) | 98.9% |
| MUSK (Homo sapiens, UniProt O15146) | 102% |
| TEC (Homo sapiens, UniProt P42680) | 114% |
| CAMK1 (Homo sapiens, UniProt Q14012) | 98.1% |
| CLK1 (Homo sapiens, UniProt P49759) | 108% |
| SIK2 (Homo sapiens, UniProt Q9H0K1) | 95.1% |
| PAK1 (Homo sapiens, UniProt Q13153) | 110% |
| SGK2 (Homo sapiens, UniProt Q9HBY8) | 107% |
| EPHA2 (Homo sapiens, UniProt P29317) | 89% |
| JAK1 (Homo sapiens, UniProt P23458) | 98.8% |

Set 4 — host: human; matrix: microsomes or S9; concentration: 2 µM; time: 0.5 h
| SMILES | remaining compound |
| --- | --- |
| CC(C)n1c(=O)ccc2cnc(N[C@H]3CC[C@H](CN(C)C)CC3)nc21 | > 100% |
| COCCN(Cc1ccc(C)c(Br)c1)C(=O)Cn1cnc(S(=O)(=O)N2CCCC2)c1 | 68.1% |
| Cn1cc(-c2noc(-c3n[nH]c4ccccc34)n2)ccc1=O | 29.9% |
| c1cnc2c(c1)OC(Cn1nnc3ncc(-c4ccc(OCC5CCNCC5)cc4)nc31)CN2 (stereo not shown) | 91.9% |
| COc1ccc(-c2nc(-c3nnn4c3COC(c3ccc(C)cc3)C4)no2)cn1 (stereo not shown) | 12.7% |
| Cc1cc([S+]([O-])c2ccccc2)c(C)n1S(=O)(=O)c1ccccc1 (stereo not shown) | 1.62% |
| c1ccc2c(c1)CCN(c1nc(N3CCOCC3)c3nn[nH]c3n1)C2 | 81% |
| Cn1c(=O)c2cc(C(=O)O)c(=O)n(C)c2n(C)c1=O | 77.4% |
| Cc1nc2c(cc1-c1ccccc1)[nH]c(=O)n2Cc1ccc(-c2cc(CC(C)C)sc2S(=O)(=O)NC(C)(C)C)cc1 | 9.17% |

For quick reference, copied from above (set 3):
| target | remaining activity |
| --- | --- |
| SIK2 (Homo sapiens, UniProt Q9H0K1) | 95.1% |
| SRPK1 (Homo sapiens, UniProt Q96SB4) | 99% |
| MAP3K20 (Homo sapiens, UniProt Q9NYL2) | 97.9% |
| CLK2 (Homo sapiens, UniProt P49760) | 86.9% |
| FLT1 (Homo sapiens, UniProt P17948) | 102% |
| TEC (Homo sapiens, UniProt P42680) | 114% |
| PRKCZ (Homo sapiens, UniProt Q05513) | 89.9% |
| PAK1 (Homo sapiens, UniProt Q13153) | 110% |
| CSNK1D (Homo sapiens, UniProt P48730) | 89.8% |
